Measurements from different studies.
Parts stem from different laboratories: compare values within a part only. Substitutions count along the parent as printed.

Block 1
Target: Histone acetyltransferase KAT6A, winged helix 2, GST fusion (KAT6A, Homo sapiens, UniProt Q92794, residues 85-181)
Technique: protein binding microarray
Molecule type: double-stranded DNA, one strand shown
Medium: in vitro
Tested at: not given
Notes: 8-mer, flanks averaged, mean of 2 arrays, mostly near background
Reference: not given
Reading: higher = stronger binding
Target sequence (chain): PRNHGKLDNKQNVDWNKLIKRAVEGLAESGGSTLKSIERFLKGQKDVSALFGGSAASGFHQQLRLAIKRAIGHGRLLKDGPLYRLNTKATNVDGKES
Strand	E-score
ACGATACG	-0.105
AGTTATTC	-0.0679
CAAGGACG	-0.101
ACACTGCC	0.144
AGCAACTG	0.0615
AAGTTACG	0.0268
AGGCAAAA	0.0113
GAGAAACC	-0.0587
GCGTTATA	-0.0248
GAACGTCC	-0.0533
ACTTGGTC	0.0919
AATCGGCC	-0.00308
GTCAGTTA	-0.208
CATGCGAA	0.172
AACAGTTA	-0.0404
ATCAGCTC	0.113
CTGTATTA	0.00199
CCGCCACC	0.0991
GCAGCAGC	0.13
ATTGAGTC	-0.0863
ATGACCCC	-0.0553
CACTTGGC	-0.0497
CTATTTCA	0.159
ATACCGAC	-0.102
CGGGCAAA	0.158

Block 2
Target: ABI1, truncated, D143A, DHFR fusion (Arabidopsis thaliana)
Technique: DHFR PCA, deep sequencing
Medium: yeast
Notes: methotrexate growth selection, single substitutions
Together with: (+)-ABA 0 µM
Reference: wild-type fitted maximum
Reading: higher = stronger binding
Starting sequence: PYL1, truncated, DHFR fusion (Arabidopsis thaliana); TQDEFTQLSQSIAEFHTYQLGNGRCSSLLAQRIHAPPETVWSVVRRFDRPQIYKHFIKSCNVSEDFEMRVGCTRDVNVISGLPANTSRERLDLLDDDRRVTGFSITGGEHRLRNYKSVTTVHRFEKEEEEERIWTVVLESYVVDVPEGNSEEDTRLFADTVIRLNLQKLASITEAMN
Substitution	relative binding score
C72L	-0.659%
S117P	5.54%
D153G	1.46%
S80W	52.8%
P37K	-0.379%
V145C	-12.4%
L156E	1.15%
L164S	9.23%
K116D	-1.37%
Q10F	1.72%
T1H	22.4%
Q10M	5.13%
T1R	21.4%
E147R	1.24%
D97T	26.2%
I57D	0.668%
S9P	0.264%
P146W	-2.13%
L29Y	-1.61%
S9M	21.2%
P83H	17%
I162H	7.29%
A13Q	35.2%

Block 3
Target: RING finger protein unkempt homolog, zinc fingers 1-6, GST-SBP tag (UNK, Homo sapiens, UniProt Q9C0B0, residues 30-357)
Chain of UniProt Q9C0B0 (30-357, looked up): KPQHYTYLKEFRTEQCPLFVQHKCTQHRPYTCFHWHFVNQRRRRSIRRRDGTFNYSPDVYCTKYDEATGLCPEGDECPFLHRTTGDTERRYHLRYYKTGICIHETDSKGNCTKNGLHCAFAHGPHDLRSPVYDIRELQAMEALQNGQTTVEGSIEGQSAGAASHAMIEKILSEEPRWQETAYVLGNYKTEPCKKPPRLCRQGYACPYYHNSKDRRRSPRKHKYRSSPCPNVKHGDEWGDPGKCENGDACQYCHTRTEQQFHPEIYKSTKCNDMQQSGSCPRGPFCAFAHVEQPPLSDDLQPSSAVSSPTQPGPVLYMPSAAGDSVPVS
Technique: RNA Bind-n-Seq
Molecule type: RNA
Medium: in vitro
Tested at: not given
Notes: RNA with constant flanks, human and mouse sites, ends assumed
Reference: input RNA pool
Reading: higher = stronger binding
Shared flanks, not repeated: GGGAGUUCUACAGUCCGACGAUC … CAACAGAGGAUUGAGCAUCA
Strand	bound/input enrichment
AGUCUUCCAUCAUAAAUUUAACUUCAUUAGAUACCUGAGAAUUAAUAUUGAAAAUACACCAUAUGAAUUUAGUGAAUGUGGGAAAGCUUUCAUCCUUAUUACAUCUUAUUUGAUACUAGG	4.91 ratio
ACUAAAUAGCAGGCACUUGAAAAUGGGUGUGUUUUCUUCCAUUGUCGUCUUUUCUAUUGAGGGUUGGGAUUUGGGUGGGAGAGGAAAGCAAAUUUUAUUUUCUUGACUAUAAAUUUGUUA	0.796 ratio
CUUUUUCUUUUUCUUUUUUUUUUUAAUAAAAAGGUUGAACUGUUUUUUUUUUCUUUUUGGUAUUAAGUCCAUCUUGUGUUGGUACAUUGGCAGAAACAUAUGCUUUAAAACUUAACUAUU	0.825 ratio
UGAAUUUUCAAUGUUUAAUUGACAUGGAUCGGAUCUUAGCAUGGUCUUUUCUGUGACUGCUAGCACUGUAUUGUAAUUUUUCCAUUUUAAGCCUUUUCAUUGCACCUCCAGCCCCUCUGC	2.38 ratio
GUUUUUAAUGUUGAAGUUGUUGCUGUUUCGUCUAUCCAUACACAAGAUCCUUAUCUUGACAAAUUUUUUGCUCUGGUCAAUGCUCUGGAUGAACACCUGUUCCCAGUCCGAAUUGGGGAC	0.287 ratio
AUUCUCUCUUCUCCUCCAGACACAAUGGCACUGCUUAUCUCCGAAAUGGUGUGAUCGUCUCCUCAUUGAGCAGCGGCUGCCACCGCGCUGUGGGUAGUGUGUGACCGUGGCUGUACUGUA	0.352 ratio
CCUACAAUAAUGAAAACCUACAGGAAUUUUUUUAUUUUUCAUUUUCCCCUUAGGCAUAUUUAGUAUUUUUCCCCCAGGCAGAUCAUUCUGAGUGUGCGAGUGUGUGUGCACAUGUUACAA	90.3 ratio
CUCGAUUAUCUCAAGAGAGAGUGUGAAGCAAAGAGUGAAGUGAUGUUUUUUGCAGAAGCUACUAGUCACUUGGAAGAGAAGAAGAAAAAACGAAAAAACAGGAAAAGGAUGAUUUUAACA	0.337 ratio
CCUAUUUUAUUAAUUUACUUCCAAACGCAACGAAAGGUCCAUGGACAAUUUGUGGGCCAUUUAAUUCAGGGCCCCCAAUUCGUACGUGGAGAAGUGGGAAUGCAAAAGUACUUUGACCUU	0.389 ratio
CAGAUGAGGAAACUGAGGCCCAGAGAAGCAGAAAGGACUUCUCUGAACCUCACUGUAAAUUAGCAUUAAAUGCAGCCGUCCUACUACUGGCAUUUUACCUACAAAAAUUUUGCUAGGGAU	0.556 ratio
AUGUGAAUAAAAUGUACAAAUUUGUUGUGUUUUUUUAUGUUCUGAGGCUGACUUCUAGGUCUUAGAUUAAUUUUUUAGGAAGGCCUUGCAUGCCAUCAAAAGUACAUUUGGCUGUGGUUU	4.79 ratio

Block 4
Target: Interferon regulatory factor 5, full length, phosphomimetic (IRF5, Homo sapiens, UniProt Q13568-2, residues 1-514, S451D/S453D/S456D/S462D)
Technique: protein-binding microarray
Molecule type: double-stranded DNA, one strand shown
Medium: in vitro
Tested at: 940 nM top
Notes: 60-bp whole probe
Together with: salmon DNA 0.4 mg/ml
Reference: random background probes
Reading: higher = stronger binding
Shared flanks, not repeated: GCCTAGCAC … GTCTTGATTCGCTTGACGCTGCTG
Strand	fitted relative affinity [z-score]
TCAAAAATGATTTTTTTACTGTGCTAG	-0.166
TTAGGTCTCGGTCTCTGTTAGTGCTAG	4.69
GACGGACGGGGGTATCGGGACGTGCTA	3.1
TTAAGTATCGGGTTTCGGTTAGTGCTA	8.04
TTAGGTTTCGACACTGGGTTAGTGCTA	8.1
GACGGTTTCCTTTCCTTGACGTGCTAG	1.77
TTAGGTATCCTTTTCATTTAGTGCTAG	0.915
CCCAGGGTCTGTTTGGGTCTGTGCTAG	-0.768
TTAGGTTTCGGTATTGGTTAGTGCTAG	13.2
TCAGCTTTCTTTATGCAACTGTGCTAG	0.819
GACGGACTGGGGTATCGGGAGGTGCTA	0.232
TTAGGTGTCGGTCTCGGTTAGTGCTAG	3.03
TTAGATTTCGGGACTGGATTGGTGCTA	0.513
TTAGGTCTCGGTCTCGGATAGTGCTAG	4.99
GACGATCTCAGACTGTAGACGTGCTAG	-0.292
TTAGGTATCCTACTGTTTTAGTGCTAG	0.0138
TACGGTATCCTACTGCTGACGTGCTAG	-0.226
GACGATAGCAGTATCGAGACGTGCTAG	1.04
CAGCACAGCTGACTACAAGCGTGCTAG	-0.671
GGAAATATTTACCTCTCACGGTGCTAG	0.041
CTGTACTTGAATTCTGCAAAGTGCTAG	-0.127
TCAGAACTGAGTATCGATTAGTGCTAG	4.25
TCATATATGAATATATAACTGTGCTAG	0.203
